Published values pooled from the literature.
Compare with care: the assays were run in different laboratories. ± marks the error that the study gave.
Organism: Plasmodium berghei

SMILES	test	test system	conditions	measurement	result
CCN1CCN(Cc2ccc(Nc3nc4ccc(Oc5ccnc(NC(=O)C6CCN(C)CC6)c5)cc4n3C)cc2C(F)(F)F)CC1		HepG2, ANKA GFP-Luc	liver stage	EC50	1600 ± 400 nM
O=C(c1ccc(Nc2ncc(Cl)c(-c3ccc(Cl)s3)n2)cc1)N1CCC(N2CCCC2)CC1	liver stage parasite load, luciferase	HepG2, ANKA	44 h post-infection	EC50	2800 nM
COc1ccc(C[C@H](NC(=O)[C@H](C)NC(=O)CN2CCOCC2)C(=O)N[C@@H](Cc2ccccc2)C(=O)C2(C)CO2)cc1 (stereo in doubt)		ANKA, mouse	dose not given, one month	recrudescence rate	< 2%
Cc1ccc(-c2nc(Nc3ccc(C(=O)N4CCC(N5CCCC5)CC4)cc3)ncc2Cl)s1	liver stage parasite load, luciferase	HepG2, ANKA	44 h post-infection	EC50	5200 nM
O=C(NCCN1CCCC1)c1cc(-c2ccc(CN3CCOCC3)cc2)nc2ccc(F)cc12	parasite growth, luciferase bioluminescence	HepG2 spheroids infected	24 h	EC50	1.28 nM
C[C@H]1[C@H](OC(=O)CCC(=O)O)O[C@@H]2O[C@@]3(C)CC[C@H]4[C@H](C)CC[C@@H]1[C@@]24OO3		NK65/GFP, infected mice	oral gavage, 65 µmol/kg once daily, 96 h dosing period	cured mice	0%
O=C1C(O)=C([C@H]2CC[C@H](c3ccc(Cl)cc3)CC2)C(=O)c2ccccc21	parasite growth, bioluminescence	HC04, ANKA GFP-Luc, liver stage	0.016 µM	inhibition	> 50%
CCOC(=O)C1=C(C)NC2=C(C(=O)OC(c3ccc(OC)c(OC)c3)C2)C1c1ccccc1Cl (stereo not drawn)		KBG-173, mice	oral, 50 mg/kg, day 6 post-exposure, vehicle PEG400, modified Thompson test	parasitaemia inhibition	> 75%
CC1(C)c2nc(-c3ccc(F)cc3)c(Nc3ccc(F)cc3)n2CCN1C(=O)CN	parasite growth, luciferase bioluminescence	HepG2 spheroids infected	24 h	EC50	45.8 nM

Repeated from above:
SMILES	test	test system	conditions	measurement	result
Cc1ccc(-c2nc(Nc3ccc(C(=O)N4CCC(N5CCCC5)CC4)cc3)ncc2Cl)s1	liver stage parasite load, luciferase	HepG2, ANKA	44 h post-infection	EC50	5200 nM
